{"data": "Assay results gathered from unrelated publications", "note": "Every numbered part comes from another study and shows a few of its results, in no order. Substitutions count along the parent as printed."}
{"data": "Set 1", "target": "RNA binding protein fox-1 homolog 2, RRM domain, GST-SBP tag (RBFOX2, Homo sapiens, UniProt O43251-10, residues 100-194)", "technique": "RNA Bind-n-Seq", "molecule type": "RNA", "sample": "in vitro", "concentration": "365 nM", "setting": "natural RNA segment, single round, ends assumed", "relative to": "no-protein control", "reading": "higher = stronger binding", "shared flanks, not repeated": "GGGAGUUCUACAGUCCGACGAUC … UGGAAUUCUCGGGUGCCAA", "Construct (chain)": "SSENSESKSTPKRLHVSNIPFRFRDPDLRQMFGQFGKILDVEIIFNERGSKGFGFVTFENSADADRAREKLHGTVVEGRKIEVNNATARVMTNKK"}
{"Oligonucleotide": "GCCCUGUCCCUGCUCAGAGAACAGAUCCGGAGCAGGUGGUCUGGUCAGUCAGGAUGGAACAGUGCUACAAGCACCAGCCUGCCUCUGAGCAGUGCUCGGAACAGCUGAGG", "RBNS enrichment (R)": 0.28}
{"Oligonucleotide": "AUAUACAGGAUAGCCUAAUUUUAUUUGUUUAAAUAUGCUUAAUAUGCCCCAGAUUGCAAAUGCAUCCAGUCAGUAAUAUCACUGUCUGUAUGUGGAGGACAUGUUCCCAU", "RBNS enrichment (R)": 0.394}
{"Oligonucleotide": "GAACCAAGCGUUUCUGUGGGAUUGAGACUGGUACGUGUACGAUGAACCUGCUGCUUUGUUUUCUGAGAAGAGGUUUGAAGACAUUUUAUUAACAGCUUAAUUUUUCUCUU", "RBNS enrichment (R)": 0.414}
{"Oligonucleotide": "UGUACUAGUCAUGGAUCUUUCUCUCCCUGGCAUGUGAAAGUCAGUCUUAGAGGAAGAGAUUCCACUUGCACGGCAACAGAGCCUUACGUUAAAUUUUCAGUCCAGUUAUG", "RBNS enrichment (R)": 0.851}
{"Oligonucleotide": "UAAUUAUUAUUGCUGUUGUUAUUUUACAAGGGUCUAGGGAGAGACCCUUGUUUGAUUUUAGCUGCAGAACGUAUUGGUCCAGCUUGCUCUUCAGUGGGAGAAAACACUUG", "RBNS enrichment (R)": 1.88}
{"Oligonucleotide": "GCUUAGUCCCAAGAAGAGGGUGAAGACUCGGCUGAGUCACUUGUGUGUGACCCCUACCAGAACAGAGACUUUCCUCCUCUUGAAGUUCUCUGAGGGGCGCCAUCUUGACC", "RBNS enrichment (R)": 0.311}
{"Oligonucleotide": "AAGCCUCUAAUCUCAACGCUUUGGGAGGCUGAGGCAGGAGGAUCGCUUGAGGCCAGGAGUUUGAGACCACCUUGGGCAACAUAACGAGACCCCGUCUCUACAAAAAAAAU", "RBNS enrichment (R)": 0.224}
{"Oligonucleotide": "GAAAUUCAUUCAAAACCCGUUAGAGUCAUAGAAUUUUUUGAAAGGCAAAUUAUAAAAGUAAACAGGUUUUUUUGUUUGGUUUUUCAAUCAUAGCAAUCGGAAUUAUUUUA", "RBNS enrichment (R)": 0.58}
{"Oligonucleotide": "ACUCUGCUACAUGGUACAGCUACCGCUAGACCUACAACUUAUGUACACAGUUGAUUUUGAUGUAUUUAUAAAAGCUUUUUUUUUCCCUAGAUUUGACAUUACUUCCUGUA", "RBNS enrichment (R)": 0.51}
{"Oligonucleotide": "AGCCCUAAAUAAAUCUAAAGUCUAAAGUUUUAUUGAUGUGAAAUUAAAUUCUUAUUGGCCAAAUGCCUGUUUUGAUGAGUUGAUUUAUAAAGAUUUUUGUUAAGCUCAGG", "RBNS enrichment (R)": 0.782}
{"Oligonucleotide": "CUGCACACUUUUACUUCUUCCGUCCUUCCUGUCUUUCAAAAUAAAAUCUUAUUUUGGCAAAGGCAAUUUGUUUAGAUGACUUUUUACGGCAACAAAAAGUCCACAUUCCC", "RBNS enrichment (R)": 0.954}
{"Oligonucleotide": "CCUGGGUCACAAUGAUCAGUUGGUUUUUCCAUUAGGGAGGGAAGGUCUGGGCCUGCUUAGCAAGAACCGCUUUAUUCCGGUUCCCAUACCACAUUCAGCCGGCCAGGAGA", "RBNS enrichment (R)": 0.294}
{"data": "Set 2", "target": "Sal-like protein 4, full length isoform A (SALL4, Homo sapiens, UniProt Q9UJQ4, residues 1-1053)", "technique": "universal PBM", "molecule type": "double-stranded DNA, one strand shown", "sample": "in vitro", "concentration": "600 nM", "setting": "8-mer, flanks averaged, mean of replicates", "reading": "higher = stronger binding", "sequence of UniProt Q9UJQ4 (whole entry, looked up)": "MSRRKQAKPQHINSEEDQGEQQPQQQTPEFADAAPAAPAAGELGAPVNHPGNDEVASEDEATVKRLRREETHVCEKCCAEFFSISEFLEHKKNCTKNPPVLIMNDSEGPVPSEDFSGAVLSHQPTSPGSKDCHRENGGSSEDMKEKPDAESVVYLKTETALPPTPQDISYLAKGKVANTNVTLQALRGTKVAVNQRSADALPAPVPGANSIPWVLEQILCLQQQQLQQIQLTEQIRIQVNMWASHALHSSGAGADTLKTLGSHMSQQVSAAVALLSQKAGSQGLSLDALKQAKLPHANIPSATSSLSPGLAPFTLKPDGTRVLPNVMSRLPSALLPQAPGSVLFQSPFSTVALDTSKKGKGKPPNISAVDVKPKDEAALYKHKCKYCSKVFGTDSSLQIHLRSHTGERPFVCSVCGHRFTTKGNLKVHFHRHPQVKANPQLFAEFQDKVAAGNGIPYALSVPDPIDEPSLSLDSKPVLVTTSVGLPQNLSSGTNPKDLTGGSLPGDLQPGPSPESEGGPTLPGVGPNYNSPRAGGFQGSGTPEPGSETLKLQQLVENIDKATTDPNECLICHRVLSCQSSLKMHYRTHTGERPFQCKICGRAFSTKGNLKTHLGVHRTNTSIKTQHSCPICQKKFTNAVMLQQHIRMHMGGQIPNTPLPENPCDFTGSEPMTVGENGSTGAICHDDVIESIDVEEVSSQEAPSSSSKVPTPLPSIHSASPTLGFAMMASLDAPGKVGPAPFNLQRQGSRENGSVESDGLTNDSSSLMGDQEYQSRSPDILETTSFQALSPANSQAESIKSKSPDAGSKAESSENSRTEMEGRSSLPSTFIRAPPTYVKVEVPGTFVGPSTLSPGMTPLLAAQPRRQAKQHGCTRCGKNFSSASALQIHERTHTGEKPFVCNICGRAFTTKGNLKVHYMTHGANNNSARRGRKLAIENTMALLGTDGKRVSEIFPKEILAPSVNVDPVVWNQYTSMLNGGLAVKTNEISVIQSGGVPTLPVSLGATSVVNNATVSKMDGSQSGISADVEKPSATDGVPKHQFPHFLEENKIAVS"}
{"Oligonucleotide": "GCGTCCCC", "E-score": -0.32}
{"Oligonucleotide": "GCACCCGA", "E-score": -0.326}
{"Oligonucleotide": "GCAGGACA", "E-score": -0.133}
{"Oligonucleotide": "ATGGTTCA", "E-score": 0.0298}
{"Oligonucleotide": "CCCTTAAG", "E-score": -0.0317}
{"Oligonucleotide": "AGTAAATC", "E-score": 0.144}
{"Oligonucleotide": "AGTGTGTG", "E-score": -0.0713}
{"Oligonucleotide": "CCTATGTA", "E-score": 0.168}
{"Oligonucleotide": "CACCAAGC", "E-score": -0.21}
{"Oligonucleotide": "GACCCTGC", "E-score": -0.148}
{"Oligonucleotide": "CTGTCAAA", "E-score": 0.11}
{"Oligonucleotide": "AGGAAGAG", "E-score": -0.0494}
{"Oligonucleotide": "ACAGGCGA", "E-score": -0.192}
{"Oligonucleotide": "GGCTGGGA", "E-score": -0.231}
{"data": "Set 3", "target": "CCNA1, cyclin fold, Cln2 fusion (human)", "technique": "yeast growth competition, sequencing", "sample": "yeast", "setting": "weak parent motif", "relative to": "not given", "reading": "higher = stronger binding", "starting sequence": "SCAPER docking peptide (human); SNARRSLNFGGST"}
{"Variant": "R4L", "normalised enrichment score": -0.0701}
{"Variant": "G10P", "normalised enrichment score": 0.654}
{"Variant": "S6K", "normalised enrichment score": 0.454}
{"Variant": "R4A", "normalised enrichment score": 0.494}
{"Variant": "S6Y", "normalised enrichment score": 0.48}
{"Variant": "G10K", "normalised enrichment score": 0.439}
{"Variant": "S6I", "normalised enrichment score": 0.353}
{"Variant": "S12K", "normalised enrichment score": 0.471}
{"Variant": "L7T", "normalised enrichment score": 0.385}
{"Variant": "R4W", "normalised enrichment score": 0.329}
{"Variant": "R4Y", "normalised enrichment score": 0.218}
{"Variant": "S12D", "normalised enrichment score": 0.615}
{"Variant": "S12A", "normalised enrichment score": 0.804}
{"Variant": "L7S", "normalised enrichment score": 0.459}
{"Variant": "A3T", "normalised enrichment score": 0.665}
{"data": "Further values, each from its own experiment"}
{"Molecule": "PhoQ, residues 284 288 289 292 302 303 TLASMF", "target": "PhoP, residues 12 14 15 18 19 NHTVL (Escherichia coli, UniProt P23836)", "test": "Sort-seq, refers to: YFP reporter", "system": "E. coli", "setting": "PhoQ-PhoP variant library, together with: 10 µM Mg2+", "scale": "relative to: high Mg2+ state, higher = stronger signaling", "quantity": "fold induction", "result": 2.11}
{"note": "Excerpt of the above (set 2):"}
{"Oligonucleotide": "GCAGGACA", "E-score": -0.133}
{"Oligonucleotide": "ATGGTTCA", "E-score": 0.0298}
{"Oligonucleotide": "CCCTTAAG", "E-score": -0.0317}
{"Oligonucleotide": "AGTAAATC", "E-score": 0.144}
{"Oligonucleotide": "AGTGTGTG", "E-score": -0.0713}
{"Oligonucleotide": "CCTATGTA", "E-score": 0.168}
